# Assay results pooled from the literature.
# Parts stem from different laboratories: compare values within a part only. Substitutions count along the parent as printed.

# Block 1 — technique: protein-binding microarray; molecule type: hairpin DNA; medium: in vitro; concentration: not given; baseline: not given; reading: higher = stronger binding; all sequences stand within: GAGGCCG … CGGCCTCACACTC
# Target: Cyclic AMP-dependent transcription factor ATF-1, full length (ATF1, Homo sapiens, UniProt P18846, residues 1-271)
# Setting: whole hairpin DNA, median over replicate spots
# Construct (chain): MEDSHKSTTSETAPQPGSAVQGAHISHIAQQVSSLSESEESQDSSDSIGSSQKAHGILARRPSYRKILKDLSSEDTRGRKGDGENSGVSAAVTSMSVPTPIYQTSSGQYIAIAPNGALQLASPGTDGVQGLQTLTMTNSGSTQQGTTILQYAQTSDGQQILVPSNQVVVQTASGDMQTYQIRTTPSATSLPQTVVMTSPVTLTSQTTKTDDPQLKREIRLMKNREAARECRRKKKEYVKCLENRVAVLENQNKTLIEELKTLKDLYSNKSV
Strand,median fluorescence [a.u.]
GATGACCGCAGCCTCCTGGCTGCGGTCATC (5mC at 30),3440
ACGACGTCTTGCCTCCTGGCAAGACGTCGT (5mC at 9 15 35),3500
AGGACGTCGTGCCTCCTGGCACGACGTCCT (5mC at 15 29 35 36),3400
ACGACCGCGTGCCTCCTGGCACGCGGTCGT (5mC at 9 15 29 35),3720
GCCGACGTCAGCCTCCTGGCTGACGTCGGC (5mC at 10 34),5430
ACGCCGTCGTGCCTCCTGGCACGACGGCGT (5mC at 9 15 29 35),3470
GCTAACGTCAGCCTCCTGGCTGACGTTAGC,4370
ACTGACGTCAGCCTCCTGGCTGACGTCAGT,8840
GCTGCGGTCAGCCTCCTGGCTGACCGCAGC (5mC at 12),3380
GCTGACGTCAGCCTCCTGGCTGACGTCAGC (5mC at 31),4420
GATCACGTCAGCCTCCTGGCTGACGTGATC,4940
GATGACCGCAGCCTCCTGGCTGCGGTCATC (5mC at 14 30),3500
GATGCCGTCAGCCTCCTGGCTGACGGCATC (5mC at 12),3740
GATGACGTCAGCCTCCTGGCTGACGTCATC (5mC at 16),9820
GATGGCGTCAGCCTCCTGGCTGACGCCATC,4150

# Block 2 — target: UBE2D1 UBC core domain (UniProt P51668); technique: yeast two-hybrid; medium: yeast; setting: mostly zero background; baseline: not given; reading: higher = stronger interaction
# B1: SH3RF1 RING domain (UniProt Q7Z6J0); chain DESALLDLLECPVCLERLDASAKVLPCQHTFCKRCLLGIVGSRNELRCPECRTLVGSGVEEL
# B2: ZMIZ2 RING domain (UniProt Q8NF64); chain GTIPGTPGPNGEDGVEQTAIKVSLKCPITFRRIQLPARGHDCRHIQCFDLESYLQLNCERGTWRCPVCNKTALLEGLEVDQYMLGILIYIQNSDYEEITIDPTCSWK
# B3: RBCK1 RING domain (UniProt Q9BYM8); chain SLVLNTEPAECPVCYSVLAPGEAVVLRECLHTFCRECLQGTIRNSQEAEVSCPFIDNTYSCSGKLLEREIK
# B4: RNF19A RING domain (UniProt Q9NV58); chain ISKQIGDFIECPLCLLRHSKDRFPDIMTCHHRSCVDCLRQYLRIEISESRVNISCPECTERFNPHDIR
# Residues (chain): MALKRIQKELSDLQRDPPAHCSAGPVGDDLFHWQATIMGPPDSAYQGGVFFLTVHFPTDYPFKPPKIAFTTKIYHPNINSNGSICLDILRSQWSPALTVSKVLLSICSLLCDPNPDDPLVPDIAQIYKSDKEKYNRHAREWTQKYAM
Sequence,lacZ reporter activity
B1 (SH3RF1 RING domain),0
B2 (ZMIZ2 RING domain),0
AVPSGLEENLCKICMDSPIDCVLLECGHMVTCTKCGKRMNECPICRQYVIRAVHVF (RFFL RING domain (UniProt Q8WZ73)),0
B3 (RBCK1 RING domain),0
B4 (RNF19A RING domain),0
GSRLQEINDVCAICYHEFTTSARITPCNHYFHALCLRKWLYIQDTCPMCHQKVYIEDDIK (RNF139 RING domain (UniProt Q8WU17)),0
FDGDVDPDLKCALCHKVLEDPLTTPCGHVFCAGCVLPWVVQEGSCPARCRGRLSAKELN (PDZRN3 RING domain (UniProt Q9UPQ7)),0

# Block 3 — technique: protein-binding microarray; molecule type: double-stranded DNA, one strand shown; medium: in vitro; concentration: 0.8 µM; setting: whole 60-bp probe, no competitor; reading: higher = stronger binding; all sequences stand within: … GTCTTGATTCGCTTGACGCTGCTG
# Target: Centromere-binding protein 1, full length, N-terminal tag (CBF1, Saccharomyces cerevisiae, UniProt P17106, residues 1-351)
# UniProt P17106, sequence (whole entry, looked up): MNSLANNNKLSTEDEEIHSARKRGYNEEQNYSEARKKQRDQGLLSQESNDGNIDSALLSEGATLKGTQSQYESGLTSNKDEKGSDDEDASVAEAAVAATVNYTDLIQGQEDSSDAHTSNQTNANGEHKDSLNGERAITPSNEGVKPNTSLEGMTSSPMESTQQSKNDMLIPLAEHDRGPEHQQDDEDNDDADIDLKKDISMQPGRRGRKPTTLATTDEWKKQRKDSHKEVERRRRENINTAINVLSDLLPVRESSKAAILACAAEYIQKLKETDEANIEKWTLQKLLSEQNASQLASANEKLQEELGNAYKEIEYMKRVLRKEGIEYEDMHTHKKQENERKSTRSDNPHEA
Strand,fluorescence intensity
CTATGTTAGAAAAGGCATGTGCACTCACAATTCTTC,635 a.u.
CTAGGCCGATGAAACGACACCACCTCCCACGATTTC,543 a.u.
GAAGTGGTTTTTGGTGGTGTAAGTAAAGGTCGTTAG,595 a.u.
CTAGACCAGCTAAAACACGTTGAAAGCAGATATTTC,578 a.u.
CCTAACTACTATAGGCACGATAAATAGCTTCGTACA,482 a.u.
GAACAACCAGCCGCAGACGTGAGTTGATCTTTTTAG,480 a.u.
GAAACCAATGTCCTCCACGGGATCGCCACTTTTTAG,601 a.u.
CCTAACTACTATAGTCATCACAAATAGCTTCGTACA,523 a.u.
CTACTGGCTTTTCTCCACGTGTCTGCTTGTTGCTTC,2370 a.u.
CTAATCAATTGAGATCACGTGCAAACCGAAGAATTC,17900 a.u.
CTATGAACGCTTTAGTACGGTCACCCCATCTACTTC,542 a.u.
GAAAATATATAACATGACGTGAGTGAAGAATTATAG,707 a.u.
TGTACGAAGCTATTGCACGGGTCTATAGTAGTTAGG,581 a.u.

# Block 4 — target: CCNB1, cyclin fold, Cln2 fusion (human); technique: yeast growth competition, sequencing; medium: yeast; setting: weak parent motif; baseline: not given; reading: higher = stronger binding
# Starting sequence: REV3L docking peptide (human); PPVIIKYIIINRF
Change,normalised enrichment score
I8A,0.166
Y7A,0.155
P2A,0.313
R12A,0.539
I9A,-0.073
F13A,0.839

# A few entries again (block 1):
Strand,median fluorescence [a.u.]
GCTGCGGTCAGCCTCCTGGCTGACCGCAGC (5mC at 12),3380
GCTGACGTCAGCCTCCTGGCTGACGTCAGC (5mC at 31),4420
GATCACGTCAGCCTCCTGGCTGACGTGATC,4940
GATGACCGCAGCCTCCTGGCTGCGGTCATC (5mC at 14 30),3500
GATGCCGTCAGCCTCCTGGCTGACGGCATC (5mC at 12),3740
GATGACGTCAGCCTCCTGGCTGACGTCATC (5mC at 16),9820
GATGGCGTCAGCCTCCTGGCTGACGCCATC,4150
